Experimental data pooled from the literature.
Lines come from different studies, so protocols differ. Numbers after ± are the reported error.
Organism: Salmonella enterica

CCOC(=O)C1=C(C)NC2=C(C(=O)CC(C)(C)C2)C1c1ccc(OCC(=O)NN=Cc2cccc([N+](=O)[O-])c2)cc1OCC(=O)NN=Cc1cccc([N+](=O)[O-])c1 (centres unmarked)  inhibition zone diameter (ATCC 13311; concentration not given, 24 h, 37 °C): 3 ± 0.1 mm
CCCCCCSCC1OC(OC2C(N)CC(N)C(OC3OC(CN)C(O)CC3N)C2O)C(O)C(N)C1O (centres unmarked)  MIC (ATCC 14028): > 150 µg/mL
N#Cc1ccc2cccc(O)c2n1  MIC (microbial growth, agar dilution; ENTERITIDIS): > 1500 µM
CCOC(=O)C1=C(C)NC2=C(C(=O)CC(C)(C)C2)C1c1ccc(OCC(=O)NN=Cc2cc(Br)c(O)c(Br)c2)cc1OCC(=O)NN=Cc1cc(Br)c(O)c(Br)c1 (centres unmarked)  inhibition zone diameter (ATCC 13311; concentration not given, 24 h, 37 °C): 4.3 ± 0.2 mm
CNC1=C([N+](=O)[O-])C2(C(=O)Nc3ccc(Cl)cc32)C2=C(O1)C(=O)c1ccccc1C2=O (centres unmarked)  inhibition (microbial growth; TYPHIMURIUM; 250 µg/mL, 24 h): 100%
Oc1c(Cl)cc(Cl)c2cccnc12  MIC (microbial growth, agar dilution; ENTERITIDIS): 37.4 µM
CCCCCCCCCCCC[S+]([O-])CC1OC(OC2C(N)CC(N)C(OC3OC(CN)C(O)CC3N)C2O)C(O)C(N)C1O (mixture of isomers)  MIC (ATCC 14028): > 150 µg/mL
CNC1=C([N+](=O)[O-])C2(C(=O)Nc3ccc([N+](=O)[O-])cc32)C2=C(CCCC2=O)O1 (centres unmarked)  inhibition (microbial growth; TYPHIMURIUM; 250 µg/mL, 24 h): 62.4%
